Assay results of several laboratories.
Compare with care: the assays were run in different laboratories. Values joined by “and” are separate records of one study, mostly repeats; a detail may differ. Numbers after ± are the reported error. ≈ marks a conversion by molar mass, not a printed value.

| SMILES | assay | test system | conditions | scale | quantity | result |
| --- | --- | --- | --- | --- | --- | --- |
| CCSc1nc2ccccc2n1Cc1nnc(-c2ccccc2OC)o1 | relaxation, calcium antagonist | isolated rabbit jejunum | together with: 80 mM K+ contraction | – | EC50 | 0.49 ± 0.15 µg/mL (≈ 1.34 µM) |
| C[C@]12CC[C@H](O)C[C@H]1CC[C@@H]1[C@@H]2CC[C@]2(C)[C@@H](c3ccc(=O)oc3)CC[C@]12O | – | female nude mouse LCC2 xenograft | 0.5 mg/kg, day 3, tamoxifen-resistant | – | tumour volume | 25.9 mm3 and 26.4 mm3 and 28.6 mm3 and 32.2 mm3 and 43.6 mm3 and 35.6 mm3 and 30 mm3 |
| CNC(=O)c1c(C)oc2cc(Oc3ccnc4cc(OCCN5CCOCC5)ccc34)ccc12 | DCE-MRI | human, tumour | 4 mg twice daily, day 2 | – | decrease in Ktrans | 31.8% |
| CC[C@H](C)[C@@H]1NC(=O)[C@@H]2CCCN2C(=O)[C@H](CC(C)C)NC(=O)[C@H](CC(C)C)NC(=O)CNC(=O)[C@@H](NC(=O)[C@@H](NC(=O)[C@H](CC(=O)O)NC(=O)CNC(=O)[C@@H](NC(=O)[C@H](C)NC(=O)CNC(=O)[C@H](CCCCN)NC(=O)[C@H](CC(C)C)NC(=O)[C@H](CC(C)C)NC(=O)[C@H](CCCCN)NC(=O)CNC(=O)[C@@H](NC(=O)[C@@H](N)CC(C)C)C(C)C)C(C)C)C(C)C)CSSC[C@@H](C(=O)O)NC1=O | RNA-seq, measured: Tacstd2 | mouse, traumatic brain injury model, frontal cortex and hippocampus | dose not given | baseline: TBI alone | log2 fold change | -2.99 |
| C[C@H]1O[C@@H](O[C@H]2CC[C@@]3(C)[C@@H](CC[C@]4(C)[C@@H]3C=C[C@]35OC[C@@]6(CCC(C)(C)C[C@H]63)[C@@H](O)C[C@]54C)[C@]2(C)CO)[C@H](O)[C@@H](O[C@@H]2O[C@H](CO)[C@@H](O)[C@H](O)[C@H]2O)[C@H]1O | – | Mus musculus, pair-fed, AAV8-TBG-Null vector, serum | oral, high dose, 5 h | – | triglycerides | 0.448 mM and 0.582 mM and 0.353 mM and 0.725 mM and 0.42 mM and 0.826 mM |
| COc1ccc(O)c(C(C)(C)C)c1 | Fe3+ reduction, ferricyanide reduction | – | 30 µg/mL | – | absorbance | 1.66 ± 0.051 |
| CCCCC1(CCCC)CN(c2ccccc2)c2cc(SC)c(OCC(=O)N[C@@H](C(=O)NCC(=O)O)c3ccccc3)cc2S(=O)(=O)C1 | measured: LDL cholesterol | human, serum | 15 mg once daily, day 8 | – | serum LDL-C | 77.5 mg/dL |
| CCSc1nc2ccccc2n1Cc1nnc(-c2ccc(F)c(OC)c2)o1 | relaxation | isolated rabbit jejunum | spontaneous contractions | – | EC50 | 0.28 ± 0.21 µg/mL (≈ 0.728 µM) |
| CC(C)C1CCC(N2CCC(N3C(=O)/C(=N\O)c4ccccc43)CC2)CC1 (stereo not drawn) | – | conscious Sprague-Dawley rat | intravenous bolus, 100 nmol/kg | – | mean arterial pressure change | decreased |
| Cc1cn(-c2cc(NC(=O)c3ccc(C)c(Nc4nccc(-c5cccnc5)n4)c3)cc(C(F)(F)F)c2)cn1 | – | human patients | dose not given, 6 months vs baseline, within treated group, unit not given | baseline: baseline | ADAS-Cog maze errors change | 1.5 |
| CCSc1nc2ccccc2n1Cc1nnc(-c2ccc(OC)c(OC)c2)o1 | relaxation, calcium antagonist | isolated rabbit jejunum | together with: 80 mM K+ contraction | – | EC50 | 0.34 ± 0.05 µg/mL (≈ 0.858 µM) |
| C=CCNc1c(O)cc2c(O)c1C[C@@H](C)C[C@H](OC)[C@H](O)[C@@H](C)/C=C(\C)[C@H](OC(N)=O)[C@@H](OC)/C=C\C=C(/C)C(=O)N2 | 18F-FDG PET EORTC criteria | human GIST | dose not given | – | metabolic partial response rate | 38% |
| CCSc1nc2ccccc2n1Cc1nnc(-c2ccc(Cl)cc2)o1 | relaxation | isolated rabbit jejunum | spontaneous contractions | – | EC50 | 0.26 ± 0.21 µg/mL (≈ 0.701 µM) |
| Cc1nc(Nc2ccc(CC(=O)O)cc2)nc(Nc2ccc(F)c(C(F)(F)F)c2)c1C | – | mice, chronic ethanol plus binge, liver | intraperitoneal, 0.3 mg/kg daily, ethanol diet 4 weeks, dosed last two | baseline: vehicle | TUNEL-positive cells | decreased |
| CCCCCCCCCCCCCC(=O)N[C@@H](CO)C(=O)N[C@@H](C)C(=O)N[C@H](C(=O)N[C@@H](CO)C(=O)N[C@@H](Cc1ccccc1)C(=O)N1CCC[C@H]1C(=O)N1CCC[C@H]1C(=O)N[C@@H](CO)C(=O)N[C@@H](Cc1ccc(O)cc1)C(=O)N[C@@H](CC(=O)O)C(=O)N[C@@H](CO)C(=O)N[C@H](C(=O)N[C@@H](C)C(=O)N[C@@H](CCCNC(=N)N)C(=O)NCC(=O)O)C(C)C)[C@@H](C)O | action potential firing, whole-cell current clamp | cultured DRG neurons, rat | – | – | IC50 | 928 nM |
| C[C@]12CC[C@H](O)CC1=CC[C@@H]1[C@@H]2CC[C@]2(C)C(n3cnc4ccccc43)=CC[C@@H]12.Cl | – | mouse CWR22Rv1 xenograft | oral, 24 mg/kg once daily, 16 days, 5 days per week | – | tumour growth inhibition | 80.3% |
| Clc1cc2c(cc1Cl)Oc1cc(Cl)c(Cl)cc1O2 | RNA-Seq, measured: Dpep1 | female Sprague-Dawley rat, liver | dose not given | baseline: vehicle | mRNA level | 3.3 fold |
| C[C@@H](NC(=O)c1ccc(C#Cc2cccc(F)c2)cn1)C(C)(C)O | field recording | rat hippocampal slice CA3 | 10 µM, together with: MTEP 10 µM, 10 min pretreatment | baseline: baseline | spontaneous population spike amplitude | 107 ± 10.8% |
| CCSc1nc2ccccc2n1Cc1nnc(-c2ccc(C)o2)o1 | relaxation | isolated rabbit jejunum | spontaneous contractions | – | EC50 | 0.26 ± 0.01 µg/mL (≈ 0.764 µM) |
| C[C@]1(CO)Cc2ncn(-c3ccc(C#N)c(Cl)c3)c2C(=O)O1 | aldosterone synthesis, inhibitor, measured: cortisol | healthy Japanese adults, urine | 40 mg, 0-24 h at steady state, multiple rising dose | – | urinary excretion | 65.6 mmol |
| CN1CCN(S(=O)(=O)c2cc([N+](=O)[O-])ccc2N(CCOS(C)(=O)=O)CCOS(C)(=O)=O)CC1 | – | NSG mice, sample CG PDX | intraperitoneal, 25 mg/kg weekly x3 | baseline: vehicle | EFS delay (T-C) | 26.6 days |

A few entries again:
| SMILES | assay | test system | conditions | scale | quantity | result |
| --- | --- | --- | --- | --- | --- | --- |
| CNC(=O)c1c(C)oc2cc(Oc3ccnc4cc(OCCN5CCOCC5)ccc34)ccc12 | DCE-MRI | human, tumour | 4 mg twice daily, day 2 | – | decrease in Ktrans | 31.8% |
| CC[C@H](C)[C@@H]1NC(=O)[C@@H]2CCCN2C(=O)[C@H](CC(C)C)NC(=O)[C@H](CC(C)C)NC(=O)CNC(=O)[C@@H](NC(=O)[C@@H](NC(=O)[C@H](CC(=O)O)NC(=O)CNC(=O)[C@@H](NC(=O)[C@H](C)NC(=O)CNC(=O)[C@H](CCCCN)NC(=O)[C@H](CC(C)C)NC(=O)[C@H](CC(C)C)NC(=O)[C@H](CCCCN)NC(=O)CNC(=O)[C@@H](NC(=O)[C@@H](N)CC(C)C)C(C)C)C(C)C)C(C)C)CSSC[C@@H](C(=O)O)NC1=O | RNA-seq, measured: Tacstd2 | mouse, traumatic brain injury model, frontal cortex and hippocampus | dose not given | baseline: TBI alone | log2 fold change | -2.99 |
| C[C@H]1O[C@@H](O[C@H]2CC[C@@]3(C)[C@@H](CC[C@]4(C)[C@@H]3C=C[C@]35OC[C@@]6(CCC(C)(C)C[C@H]63)[C@@H](O)C[C@]54C)[C@]2(C)CO)[C@H](O)[C@@H](O[C@@H]2O[C@H](CO)[C@@H](O)[C@H](O)[C@H]2O)[C@H]1O | – | Mus musculus, pair-fed, AAV8-TBG-Null vector, serum | oral, high dose, 5 h | – | triglycerides | 0.448 mM and 0.582 mM and 0.353 mM and 0.725 mM and 0.42 mM and 0.826 mM |
